Experimental data of several laboratories.
Compare with care: the assays were run in different laboratories.
AMY2: Pancreatic alpha-amylase (AMY2, Sus scrofa, UniProt P00690)
Sequence of UniProt P00690 (whole entry, looked up): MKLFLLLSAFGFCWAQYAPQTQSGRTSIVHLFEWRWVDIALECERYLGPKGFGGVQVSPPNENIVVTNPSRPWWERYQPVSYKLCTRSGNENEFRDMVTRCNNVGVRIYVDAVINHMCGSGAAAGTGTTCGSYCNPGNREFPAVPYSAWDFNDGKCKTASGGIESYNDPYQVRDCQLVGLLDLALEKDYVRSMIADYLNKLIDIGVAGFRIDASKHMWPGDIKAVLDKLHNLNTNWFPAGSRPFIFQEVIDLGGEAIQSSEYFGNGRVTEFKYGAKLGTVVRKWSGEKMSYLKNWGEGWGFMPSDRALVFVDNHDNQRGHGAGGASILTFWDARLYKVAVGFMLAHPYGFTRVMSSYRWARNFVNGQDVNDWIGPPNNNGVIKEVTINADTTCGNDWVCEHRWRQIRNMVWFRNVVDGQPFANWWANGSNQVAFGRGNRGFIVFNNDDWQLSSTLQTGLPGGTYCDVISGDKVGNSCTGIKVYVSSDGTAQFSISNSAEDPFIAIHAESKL
rep papain-like protease: Replicase polyprotein 1ab, papain-like protease (rep, Porcine epidemic diarrhea virus, UniProt P0C6Y4)
rep main protease: Replicase polyprotein 1ab, main protease (rep, Porcine epidemic diarrhea virus, UniProt P0C6Y4)
NT5E: 5'-nucleotidase (NT5E, Homo sapiens, UniProt P21589)
Sequence of UniProt P21589 (whole entry, looked up): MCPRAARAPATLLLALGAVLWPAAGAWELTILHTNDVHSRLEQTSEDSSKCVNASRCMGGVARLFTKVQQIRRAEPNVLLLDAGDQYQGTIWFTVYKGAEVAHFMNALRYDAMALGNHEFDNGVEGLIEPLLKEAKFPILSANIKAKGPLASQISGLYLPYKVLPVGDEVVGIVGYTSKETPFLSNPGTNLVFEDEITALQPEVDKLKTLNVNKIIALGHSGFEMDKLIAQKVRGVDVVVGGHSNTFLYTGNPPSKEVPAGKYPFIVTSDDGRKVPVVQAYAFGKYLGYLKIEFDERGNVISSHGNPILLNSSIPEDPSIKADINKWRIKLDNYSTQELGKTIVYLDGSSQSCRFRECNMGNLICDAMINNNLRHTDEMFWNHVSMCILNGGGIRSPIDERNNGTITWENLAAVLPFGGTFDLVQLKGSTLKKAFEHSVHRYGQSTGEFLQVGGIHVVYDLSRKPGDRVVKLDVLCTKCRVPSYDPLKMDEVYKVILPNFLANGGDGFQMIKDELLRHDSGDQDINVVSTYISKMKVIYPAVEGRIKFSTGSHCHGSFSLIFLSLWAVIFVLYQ
CDK7 with cyclin H: Cyclin-dependent kinase 7, with cyclin H (CDK7, Homo sapiens, UniProt P50613)
Sequence of UniProt P50613 (whole entry, looked up): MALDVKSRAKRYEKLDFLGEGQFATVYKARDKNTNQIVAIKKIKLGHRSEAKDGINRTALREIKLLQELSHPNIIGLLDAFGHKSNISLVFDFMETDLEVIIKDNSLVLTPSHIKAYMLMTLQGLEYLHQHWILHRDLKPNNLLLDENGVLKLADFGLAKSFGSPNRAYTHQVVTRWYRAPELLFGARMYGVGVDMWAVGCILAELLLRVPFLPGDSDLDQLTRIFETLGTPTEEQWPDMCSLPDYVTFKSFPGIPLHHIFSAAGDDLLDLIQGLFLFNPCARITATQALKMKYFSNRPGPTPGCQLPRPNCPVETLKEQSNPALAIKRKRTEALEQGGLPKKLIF
PIP4K2C: Phosphatidylinositol 5-phosphate 4-kinase type-2 gamma (PIP4K2C, Homo sapiens, UniProt Q8TBX8)
Sequence of UniProt Q8TBX8 (whole entry, looked up): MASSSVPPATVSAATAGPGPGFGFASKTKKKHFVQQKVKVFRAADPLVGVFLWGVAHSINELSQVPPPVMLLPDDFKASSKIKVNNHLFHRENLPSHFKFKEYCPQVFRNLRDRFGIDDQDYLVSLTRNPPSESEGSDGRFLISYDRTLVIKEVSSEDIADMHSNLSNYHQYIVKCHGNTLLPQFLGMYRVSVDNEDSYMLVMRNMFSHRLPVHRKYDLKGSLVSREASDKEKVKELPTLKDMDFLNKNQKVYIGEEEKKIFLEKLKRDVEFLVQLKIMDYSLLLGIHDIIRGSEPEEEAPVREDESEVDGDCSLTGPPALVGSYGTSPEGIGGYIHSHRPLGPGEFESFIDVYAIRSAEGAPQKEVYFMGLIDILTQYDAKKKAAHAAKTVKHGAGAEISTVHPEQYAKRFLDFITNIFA
Sequence of UniProt Q9Y2I7 (whole entry, looked up): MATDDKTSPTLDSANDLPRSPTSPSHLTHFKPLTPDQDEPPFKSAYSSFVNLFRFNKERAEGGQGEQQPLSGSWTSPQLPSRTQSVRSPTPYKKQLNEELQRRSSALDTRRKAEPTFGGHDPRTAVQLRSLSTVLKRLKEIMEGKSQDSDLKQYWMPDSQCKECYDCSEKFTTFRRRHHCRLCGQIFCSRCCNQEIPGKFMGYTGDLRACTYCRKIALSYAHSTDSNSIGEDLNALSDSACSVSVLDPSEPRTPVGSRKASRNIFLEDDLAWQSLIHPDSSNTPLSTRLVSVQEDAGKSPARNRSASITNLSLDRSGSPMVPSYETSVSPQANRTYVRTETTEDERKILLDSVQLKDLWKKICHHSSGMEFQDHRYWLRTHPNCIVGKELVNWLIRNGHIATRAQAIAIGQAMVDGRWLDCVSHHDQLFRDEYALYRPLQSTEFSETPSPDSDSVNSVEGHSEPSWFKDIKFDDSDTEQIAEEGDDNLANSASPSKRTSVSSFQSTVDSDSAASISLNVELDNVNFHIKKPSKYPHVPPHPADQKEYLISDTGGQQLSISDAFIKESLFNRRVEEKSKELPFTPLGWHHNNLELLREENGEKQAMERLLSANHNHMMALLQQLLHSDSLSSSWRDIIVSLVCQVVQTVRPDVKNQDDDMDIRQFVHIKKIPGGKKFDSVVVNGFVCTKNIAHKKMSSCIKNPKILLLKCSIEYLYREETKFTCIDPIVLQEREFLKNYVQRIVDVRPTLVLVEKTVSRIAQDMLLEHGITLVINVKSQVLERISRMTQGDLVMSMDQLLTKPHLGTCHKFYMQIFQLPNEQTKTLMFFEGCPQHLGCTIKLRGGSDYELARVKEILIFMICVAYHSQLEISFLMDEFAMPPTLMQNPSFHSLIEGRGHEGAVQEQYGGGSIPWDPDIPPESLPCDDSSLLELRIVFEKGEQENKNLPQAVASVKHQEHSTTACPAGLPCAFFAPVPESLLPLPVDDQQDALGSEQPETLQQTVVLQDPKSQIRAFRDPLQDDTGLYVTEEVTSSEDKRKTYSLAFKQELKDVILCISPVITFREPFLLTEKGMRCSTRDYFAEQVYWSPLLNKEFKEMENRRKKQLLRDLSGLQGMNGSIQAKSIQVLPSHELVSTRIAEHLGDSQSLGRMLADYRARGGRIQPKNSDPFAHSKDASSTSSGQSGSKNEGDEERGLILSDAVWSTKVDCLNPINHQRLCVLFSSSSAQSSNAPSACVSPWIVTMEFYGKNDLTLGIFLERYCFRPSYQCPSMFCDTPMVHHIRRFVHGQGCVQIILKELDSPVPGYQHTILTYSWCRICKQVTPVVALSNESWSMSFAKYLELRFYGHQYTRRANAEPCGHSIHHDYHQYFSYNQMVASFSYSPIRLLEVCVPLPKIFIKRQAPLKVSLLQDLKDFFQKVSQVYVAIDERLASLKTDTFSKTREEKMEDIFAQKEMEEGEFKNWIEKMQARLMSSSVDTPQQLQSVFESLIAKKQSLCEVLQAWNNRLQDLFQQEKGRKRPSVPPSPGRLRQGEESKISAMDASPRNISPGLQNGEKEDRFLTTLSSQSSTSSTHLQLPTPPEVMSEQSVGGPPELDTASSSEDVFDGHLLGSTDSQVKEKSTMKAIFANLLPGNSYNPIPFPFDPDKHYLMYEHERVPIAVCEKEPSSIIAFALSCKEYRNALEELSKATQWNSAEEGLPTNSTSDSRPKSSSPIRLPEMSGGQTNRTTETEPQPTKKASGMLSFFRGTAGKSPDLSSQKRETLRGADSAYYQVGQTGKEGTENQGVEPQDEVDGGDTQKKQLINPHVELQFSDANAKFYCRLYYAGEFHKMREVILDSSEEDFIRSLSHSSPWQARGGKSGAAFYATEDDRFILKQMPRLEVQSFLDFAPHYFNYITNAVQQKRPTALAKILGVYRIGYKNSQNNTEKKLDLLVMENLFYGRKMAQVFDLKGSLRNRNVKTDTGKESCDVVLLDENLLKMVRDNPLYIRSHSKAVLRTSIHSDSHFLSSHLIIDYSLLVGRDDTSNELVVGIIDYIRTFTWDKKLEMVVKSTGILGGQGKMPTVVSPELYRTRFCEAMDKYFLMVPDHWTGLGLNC
Sequence of UniProt P48736 (whole entry, looked up): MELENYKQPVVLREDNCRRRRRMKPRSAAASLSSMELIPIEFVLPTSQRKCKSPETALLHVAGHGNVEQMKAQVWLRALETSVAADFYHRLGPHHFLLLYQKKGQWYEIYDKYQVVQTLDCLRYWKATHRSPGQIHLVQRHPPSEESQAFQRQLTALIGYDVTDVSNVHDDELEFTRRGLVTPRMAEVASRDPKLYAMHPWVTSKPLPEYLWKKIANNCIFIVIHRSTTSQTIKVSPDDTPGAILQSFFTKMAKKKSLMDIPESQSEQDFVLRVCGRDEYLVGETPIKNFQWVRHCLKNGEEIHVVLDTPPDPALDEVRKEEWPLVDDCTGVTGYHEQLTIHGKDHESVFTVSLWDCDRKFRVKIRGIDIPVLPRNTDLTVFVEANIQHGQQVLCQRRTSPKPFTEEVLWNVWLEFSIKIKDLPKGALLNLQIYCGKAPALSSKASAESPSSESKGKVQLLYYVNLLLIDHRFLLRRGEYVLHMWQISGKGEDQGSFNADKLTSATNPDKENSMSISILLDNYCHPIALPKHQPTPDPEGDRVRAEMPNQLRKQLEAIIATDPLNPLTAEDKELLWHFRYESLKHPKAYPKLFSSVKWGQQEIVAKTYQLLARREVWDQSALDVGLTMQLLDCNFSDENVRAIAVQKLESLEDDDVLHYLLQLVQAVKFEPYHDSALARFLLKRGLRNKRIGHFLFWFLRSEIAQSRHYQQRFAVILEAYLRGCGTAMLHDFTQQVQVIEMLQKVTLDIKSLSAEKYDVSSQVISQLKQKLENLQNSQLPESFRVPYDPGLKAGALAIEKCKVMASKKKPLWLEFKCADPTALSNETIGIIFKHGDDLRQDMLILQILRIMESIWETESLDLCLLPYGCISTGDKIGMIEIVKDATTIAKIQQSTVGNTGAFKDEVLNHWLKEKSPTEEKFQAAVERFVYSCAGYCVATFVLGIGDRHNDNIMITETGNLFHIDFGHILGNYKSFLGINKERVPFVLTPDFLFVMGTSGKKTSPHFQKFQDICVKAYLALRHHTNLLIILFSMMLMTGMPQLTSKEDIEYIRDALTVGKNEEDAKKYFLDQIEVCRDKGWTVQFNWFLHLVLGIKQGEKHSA

Structure (SMILES) | tested on | test | system | setting | quantity | value
CCN(O)N=Nc1ccc(S(=O)(=O)Nc2nccs2)cc1 | AMY2 | enzyme activity, inhibitor |  | 60 µg/mL | inhibition | 10.5%
CC[C@H](C)[C@H](NC(=O)[C@H](CCC(N)=O)NC(=O)[C@H](CC(C)C)NC(=O)[C@H](CCSC)NC(=O)[C@H](CCCCN)NC(=O)[C@H](CO)NC(=O)[C@H](CO)NC(=O)[C@H](CCSC)NC(=O)[C@H](CC(C)C)NC(=O)[C@H](CC(N)=O)NC(=O)[C@@H](NC(=O)[C@@H](NC(=O)[C@H](CO)NC(=O)[C@H](CC(C)C)NC(=O)[C@H](CS)NC(=O)[C@H](CCCNC(=N)N)NC(=O)[C@H](CC(=O)O)NC(=O)[C@H](Cc1c[nH]c2ccccc12)NC(=O)[C@H](Cc1ccccc1)NC(=O)[C@H](C)NC(=O)[C@H](CCC(=O)O)NC(=O)[C@@H](N)CCCCN)C(C)C)[C@@H](C)CC)C(=O)N[C@@H](CC(N)=O)C(=O)N[C@@H](C)C(=O)O | MAPK3 (Homo sapiens, UniProt P27361) | enzyme activity, inhibitor, radiometric |  | 250 µM | inhibition | 11%
CCOC(=O)[C@@]12C[C@@H]1[C@@H](n1ccc3c(NCCCCCc4ccccc4)nc(C#Cc4ccccc4)nc31)[C@H](O)[C@@H]2O | SLC6A2 (Homo sapiens, UniProt P23975) | ligand displacement, radioligand |  | 10 µM | inhibition | 67%
O=C(NCc1ccc(O)c(O)c1)c1ccc(Br)cc1 | rep papain-like protease | enzyme activity, inhibitor, FRET |  | 10 µM | inhibition | 31.9%
CCCN(O)N=Nc1ccc(S(=O)(=O)Nc2onc(C)c2C)cc1 | AMY2 | enzyme activity, inhibitor |  | 180 µg/mL | inhibition | 57.9%
O=C(NCc1cc(O)c(O)c(Br)c1)c1nccs1 | rep main protease | enzyme activity, inhibitor, FRET |  | 10 µM | inhibition | 111%
Cc1cc(C)c2c(N)c(C(=O)Nc3ccon3)sc2n1 | NT5E | enzyme activity, inhibitor |  | 10 µM | inhibition | -20%
COc1cc(CNC(=O)c2cccc(CCl)c2)cc(Br)c1OC | rep papain-like protease | enzyme activity, inhibitor, FRET |  | 10 µM | inhibition | 31%
Nc1ccn([C@@H]2O[C@H](CO)[C@@H](O)C2(F)F)c(=O)n1 | HEK293 | cell growth or viability, MTT |  | 0.3125 µg/mL, 48 h | viability | 85.9%
COc1cc(CNC(=O)c2ccc(Cl)c(F)c2)cc(Br)c1OC | rep main protease | enzyme activity, inhibitor, FRET |  | 10 µM | inhibition | 33.7%
CC[C@H](C)[C@H](NC(=O)[C@H](CCC(N)=O)NC(=O)[C@@H](NC(=O)[C@H](CCSC)NC(=O)[C@H](CCCCN)NC(=O)[C@H](CO)NC(=O)[C@@H](NC(=O)[C@H](CCSC)NC(=O)[C@H](CC(C)C)NC(=O)[C@H](CC(N)=O)NC(=O)[C@@H](NC(=O)[C@@H](NC(=O)[C@H](CO)NC(=O)[C@H](CC(C)C)NC(=O)[C@H](C)NC(=O)[C@H](CCCNC(=N)N)NC(=O)[C@H](CCC(=O)O)NC(=O)[C@H](Cc1ccc(O)cc1)NC(=O)[C@H](Cc1ccccc1)NC(=O)[C@H](C)NC(=O)[C@H](CC(N)=O)NC(=O)[C@@H](N)CCCCN)[C@@H](C)CC)[C@@H](C)CC)[C@@H](C)O)C(C)C)C(=O)N[C@@H](CC(N)=O)C(=O)N[C@H](C(=O)O)C(C)C | Cyclin-dependent kinase 5, with p25 (CDK5, Homo sapiens, UniProt Q00535) | enzyme activity, inhibitor, radiometric |  | 1 µM | inhibition | -2%
CC(=O)c1nn(CC(=O)N2C[C@H](F)C[C@H]2C(=O)Nc2cccc(Br)n2)c2ccc(-c3cnc(C)nc3)cc12 | PLAU (Homo sapiens, UniProt P00749) | enzyme activity, inhibitor |  | 10 µM | inhibition | 2.5%
COc1ccc(Cl)cc1-c1cc(=O)[nH]c(=S)n1CC(N)=O | Myeloperoxidase (MPO, Homo sapiens, UniProt P05164) | enzyme activity, inhibitor, fluorescence |  | 10 µM | inhibition | 98.5%
Cc1cc(O)c(-c2ccc([C@@H](C)CN(C)C)cc2)c2c1[nH]c(=O)c1sccc12 | PIKFYVE (Homo sapiens, UniProt Q9Y2I7) | cell-free assay, inhibitor |  | 0.1 µM | inhibition | 4.14%
CC(=NNC(=O)c1ccccc1)c1ccc(Nc2nnc(-c3ccc(Cl)cc3)c3ccccc23)cc1 | HepG2 | cell growth or viability, MTT |  | 5 µM, 24 h | viability | 2.73%
CN(C)c1ncnc2c1ncn2[C@@H]1O[C@H](CO)[C@@H](O)[C@H]1O | ADORA3 (Homo sapiens, UniProt P0DMS8, I253N) | G protein activation, agonist |  |  | EC50 | 15 µM
CCN(O)N=Nc1ccc(S(=O)(=O)Nc2cc(C)on2)cc1 | AMY2 | enzyme activity, inhibitor |  | 240 µg/mL | inhibition | 63.2%
CC(=NNC(N)=S)c1ccc(Nc2nnc(-c3ccc(Cl)cc3)c3ccccc23)cc1 | HepG2 | cell growth or viability, MTT |  | 1.25 µM, 24 h | viability | 7.65%
O=C(NCc1cc(O)c(O)c(Br)c1)c1cccc(C(F)(F)F)c1 | rep main protease | enzyme activity, inhibitor, FRET |  | 10 µM | inhibition | 98.5%
C[C@H]1O[C@H](O[C@H]2[C@H](O)[C@@H](O)[C@@H](O[C@H]3[C@H](O)[C@@H](O)C(O)O[C@@H]3CO)O[C@@H]2CO)[C@H](O)[C@@H](O)[C@@H]1N[C@H]1C=C(CO)[C@@H](O)[C@H](O)[C@H]1O (stereo partly shown) | AMY2 | enzyme activity, inhibitor |  | 120 µg/mL | inhibition | 72.1%
COc1ccc(CNC(=O)c2ccccc2)cc1OC | rep papain-like protease | enzyme activity, inhibitor, FRET |  | 10 µM | inhibition | 49.4%
C=CC(=O)N1CCC(COCC(=O)N2CCN(c3nc(-c4cnc(N)nc4C(F)F)nc(N4CCOC[C@@H]4C)n3)CC2)CC1 | GRK1 (Homo sapiens, UniProt Q15835) | binding, competition with immobilised ligand |  | 1 µM | remaining binding | 100%

Structure (SMILES) | tested on | test | system | setting | quantity | value
Cc1cc([C@@H](C)Nc2ccccc2C(=O)O)c2nc(N3CCC(F)(F)CC3)c(C#N)c(=O)n2c1 | MAPKAPK2 (Homo sapiens, UniProt P49137) | binding, competition with immobilised ligand |  | 10 µM | remaining binding | 67%
C1=C/COCc2cc(ccc2OCCN2CCCC2)Nc2nccc(n2)-c2cccc(c2)COC/1 | PIK3CA (Homo sapiens, UniProt P42336) | binding |  | 0.1 µM | remaining binding | 77%
Cc1cccc(NC(=O)c2sc3nc(C)cc(C(F)(F)F)c3c2N)n1 | NT5E | enzyme activity, inhibitor |  | 10 µM | inhibition | 32%
O=c1c(-c2ccc(O)cc2)coc2cc(O)ccc12 | CDK7 with cyclin H | enzyme activity, inhibitor, ADP detection |  | 10 µM | inhibition | 31.9%
CN1CC(Oc2cnc(C#N)cc2-c2ccn3nc(NC(=O)C4CC4)cc3c2)C1 | PIK3CG (Homo sapiens, UniProt P48736) | enzyme activity, inhibitor |  | 1 µM | inhibition | 1%
O=C(NCc1ccccc1)c1ccc2c(c1)C(=O)NC2=O | MAOB (Homo sapiens, UniProt P27338) | enzyme activity, inhibitor |  | 1 µM | inhibition | < 5%
CCCCC(=O)Nc1ccc(-c2ccc3ncn(CCC)c(=O)c3c2)cc1 | PIP4K2C | binding, competition with immobilised ligand |  | 0.5 µM | inhibition | 99.7%
CCCN(O)N=Nc1ccc(S(=O)(=O)Nc2cc(C)on2)cc1 | AMY2 | enzyme activity, inhibitor |  | 300 µg/mL | inhibition | 68.4%
COc1cc(-c2cncc3c2CN(C)Cc2cc(N4CCNCC4)ccc2-3)cc(OC)c1OC | Rock2 (Rattus norvegicus, UniProt Q62868) | enzyme activity, inhibitor |  | 1 µM | remaining activity | 92%
COc1cccc(OC)c1-c1cc(C(=O)NC2(C(=O)O)C3CC4CC(C3)CC2C4)nn1-c1ccc(C(=O)N(C)CCCN(C)CCCN(C)C(=O)CN2CCN(CC(=O)[O-])CCN(CC(=O)[O-])CCN(CC(=O)[O-])CC2)cc1C(C)C.[177Lu+3] (stereo not shown) | HT-29 tumour model |  | host not given, bone | 24 h, tumour-bearing | tracer uptake | 0.101 %ID/g
NC/C(=C\F)COc1cccc(Cn2c(=S)[nH]c(=O)c3[nH]cnc32)c1 | AOC1 (Homo sapiens, UniProt P19801) | enzyme activity, inhibitor |  | 1.4 nM | inhibition | 2.88%
CCCCCC(=O)Nc1ccc(-c2ccc3ncn(CCC)c(=O)c3c2)cn1 | PIP4K2C | binding, competition with immobilised ligand |  | 0.5 µM | inhibition | 97.7%
CCCc1nc(C(C)(C)O)c(C(=O)O)n1Cc1ccc(-c2ccccc2-c2nnn[nH]2)cc1 | SLC22A11 (Homo sapiens, UniProt Q9NSA0) | transporter uptake, inhibitor |  | 25 µM | inhibition | 50 to 90%
COc1cc2c(cc1OC)C(=O)N(CC1CCN(Cc3ccc(F)nc3)CC1)C2 | ache (Electrophorus electricus, UniProt O42275) | enzyme activity, inhibitor |  | 1 µM | inhibition | -5.38%
Cc1cc(-c2ccccc2)nc(SCC(=O)Nc2ccccc2)c1C#N | NT5E | enzyme activity, inhibitor |  | 10 µM | inhibition | 71%
CCCCC(=O)Nc1ccc(-c2ccc3ncn(CC4CC4)c(=O)c3c2)cn1 | PIP4K2C | binding, competition with immobilised ligand |  | 0.5 µM | inhibition | 99.7%
Cc1cc(-c2ccccc2)nc2sc(C(=O)Nc3ccccc3)c(N)c12 | NT5E | enzyme activity, inhibitor |  | 10 µM | inhibition | 3%
Cc1cccc(N(O)N=Nc2ccc(S(=O)(=O)Nc3cc(C)on3)cc2)c1 | AMY2 | enzyme activity, inhibitor |  | 20 µg/mL | inhibition | 10.5%
Nc1nccc(-c2c[nH]c3ccccc23)n1 | CDK7 with cyclin H | enzyme activity, inhibitor, ADP detection |  | 10 µM | inhibition | -10%
COc1cccc(-c2n[nH]c(SCc3ccccn3)n2)c1OC |  |  | male Sprague-Dawley rat, plasma | intravenous, 1 mg/kg, 1 h, single dose | concentration | 273 ng/mL
CNc1ncc2c(/C=C/C(=O)N3CCC(OC)CC3)nn(Cc3cccc(C(F)(F)F)c3)c2n1 | PHKG1 (Homo sapiens, UniProt Q16816) | enzyme activity, inhibitor, radiometric |  | 1 µM | remaining activity | 93%

Repeated from above:
Structure (SMILES) | tested on | test | system | setting | quantity | value
NC/C(=C\F)COc1cccc(Cn2c(=S)[nH]c(=O)c3[nH]cnc32)c1 | AOC1 (Homo sapiens, UniProt P19801) | enzyme activity, inhibitor |  | 1.4 nM | inhibition | 2.88%
CCCCCC(=O)Nc1ccc(-c2ccc3ncn(CCC)c(=O)c3c2)cn1 | PIP4K2C | binding, competition with immobilised ligand |  | 0.5 µM | inhibition | 97.7%
CCCc1nc(C(C)(C)O)c(C(=O)O)n1Cc1ccc(-c2ccccc2-c2nnn[nH]2)cc1 | SLC22A11 (Homo sapiens, UniProt Q9NSA0) | transporter uptake, inhibitor |  | 25 µM | inhibition | 50 to 90%
COc1cc2c(cc1OC)C(=O)N(CC1CCN(Cc3ccc(F)nc3)CC1)C2 | ache (Electrophorus electricus, UniProt O42275) | enzyme activity, inhibitor |  | 1 µM | inhibition | -5.38%
